Measurements of several laboratories.
Numbered parts are unrelated; each lists some results of a single study. Changes are numbered by the printed parent chain.
UniProt P37173, sequence (whole entry, looked up): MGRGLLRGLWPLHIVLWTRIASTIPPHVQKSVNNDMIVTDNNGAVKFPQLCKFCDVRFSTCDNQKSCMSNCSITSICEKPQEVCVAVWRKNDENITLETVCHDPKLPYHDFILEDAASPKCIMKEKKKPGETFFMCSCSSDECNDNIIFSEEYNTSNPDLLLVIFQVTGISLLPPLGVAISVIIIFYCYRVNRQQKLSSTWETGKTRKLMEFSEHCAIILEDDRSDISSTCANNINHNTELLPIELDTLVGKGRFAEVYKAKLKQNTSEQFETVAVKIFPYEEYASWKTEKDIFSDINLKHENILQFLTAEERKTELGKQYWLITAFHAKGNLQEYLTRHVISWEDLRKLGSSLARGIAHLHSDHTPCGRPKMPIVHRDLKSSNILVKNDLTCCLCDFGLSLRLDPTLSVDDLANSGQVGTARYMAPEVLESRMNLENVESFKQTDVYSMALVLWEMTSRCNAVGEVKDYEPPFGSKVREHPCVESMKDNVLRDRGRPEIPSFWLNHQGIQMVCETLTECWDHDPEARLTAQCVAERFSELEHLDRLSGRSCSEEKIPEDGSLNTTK
UniProt P51617, sequence (whole entry, looked up): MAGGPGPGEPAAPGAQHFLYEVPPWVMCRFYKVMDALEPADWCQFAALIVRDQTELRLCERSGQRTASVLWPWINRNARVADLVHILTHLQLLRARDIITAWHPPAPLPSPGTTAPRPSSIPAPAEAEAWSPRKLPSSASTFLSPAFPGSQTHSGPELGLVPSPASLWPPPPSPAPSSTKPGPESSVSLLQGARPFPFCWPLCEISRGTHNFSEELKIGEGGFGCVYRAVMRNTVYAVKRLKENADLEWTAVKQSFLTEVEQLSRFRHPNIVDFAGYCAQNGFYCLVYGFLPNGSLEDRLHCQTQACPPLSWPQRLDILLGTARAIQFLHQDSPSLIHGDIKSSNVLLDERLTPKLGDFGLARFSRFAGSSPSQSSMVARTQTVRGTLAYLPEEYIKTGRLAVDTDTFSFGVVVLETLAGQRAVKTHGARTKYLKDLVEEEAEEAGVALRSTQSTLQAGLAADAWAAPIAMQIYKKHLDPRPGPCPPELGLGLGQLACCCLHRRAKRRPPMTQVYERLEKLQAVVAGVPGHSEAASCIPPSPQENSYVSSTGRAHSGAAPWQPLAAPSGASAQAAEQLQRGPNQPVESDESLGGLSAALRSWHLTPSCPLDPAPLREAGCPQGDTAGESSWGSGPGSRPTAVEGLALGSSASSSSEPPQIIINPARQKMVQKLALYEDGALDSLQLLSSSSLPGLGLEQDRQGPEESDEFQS
UniProt P51451, sequence (whole entry, looked up): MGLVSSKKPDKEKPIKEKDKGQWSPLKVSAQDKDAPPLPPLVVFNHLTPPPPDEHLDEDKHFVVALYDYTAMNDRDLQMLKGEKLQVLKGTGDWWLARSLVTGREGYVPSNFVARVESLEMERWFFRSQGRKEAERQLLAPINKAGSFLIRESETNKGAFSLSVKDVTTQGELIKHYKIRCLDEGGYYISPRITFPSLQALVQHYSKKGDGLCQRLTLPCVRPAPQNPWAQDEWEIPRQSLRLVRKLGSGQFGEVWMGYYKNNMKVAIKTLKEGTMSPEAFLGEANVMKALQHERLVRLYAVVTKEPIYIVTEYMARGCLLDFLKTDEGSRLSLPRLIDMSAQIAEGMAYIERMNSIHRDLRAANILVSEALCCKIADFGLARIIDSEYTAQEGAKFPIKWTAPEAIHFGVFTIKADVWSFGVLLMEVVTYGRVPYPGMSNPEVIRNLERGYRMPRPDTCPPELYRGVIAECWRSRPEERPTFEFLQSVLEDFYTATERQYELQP
UniProt P42338, sequence (whole entry, looked up): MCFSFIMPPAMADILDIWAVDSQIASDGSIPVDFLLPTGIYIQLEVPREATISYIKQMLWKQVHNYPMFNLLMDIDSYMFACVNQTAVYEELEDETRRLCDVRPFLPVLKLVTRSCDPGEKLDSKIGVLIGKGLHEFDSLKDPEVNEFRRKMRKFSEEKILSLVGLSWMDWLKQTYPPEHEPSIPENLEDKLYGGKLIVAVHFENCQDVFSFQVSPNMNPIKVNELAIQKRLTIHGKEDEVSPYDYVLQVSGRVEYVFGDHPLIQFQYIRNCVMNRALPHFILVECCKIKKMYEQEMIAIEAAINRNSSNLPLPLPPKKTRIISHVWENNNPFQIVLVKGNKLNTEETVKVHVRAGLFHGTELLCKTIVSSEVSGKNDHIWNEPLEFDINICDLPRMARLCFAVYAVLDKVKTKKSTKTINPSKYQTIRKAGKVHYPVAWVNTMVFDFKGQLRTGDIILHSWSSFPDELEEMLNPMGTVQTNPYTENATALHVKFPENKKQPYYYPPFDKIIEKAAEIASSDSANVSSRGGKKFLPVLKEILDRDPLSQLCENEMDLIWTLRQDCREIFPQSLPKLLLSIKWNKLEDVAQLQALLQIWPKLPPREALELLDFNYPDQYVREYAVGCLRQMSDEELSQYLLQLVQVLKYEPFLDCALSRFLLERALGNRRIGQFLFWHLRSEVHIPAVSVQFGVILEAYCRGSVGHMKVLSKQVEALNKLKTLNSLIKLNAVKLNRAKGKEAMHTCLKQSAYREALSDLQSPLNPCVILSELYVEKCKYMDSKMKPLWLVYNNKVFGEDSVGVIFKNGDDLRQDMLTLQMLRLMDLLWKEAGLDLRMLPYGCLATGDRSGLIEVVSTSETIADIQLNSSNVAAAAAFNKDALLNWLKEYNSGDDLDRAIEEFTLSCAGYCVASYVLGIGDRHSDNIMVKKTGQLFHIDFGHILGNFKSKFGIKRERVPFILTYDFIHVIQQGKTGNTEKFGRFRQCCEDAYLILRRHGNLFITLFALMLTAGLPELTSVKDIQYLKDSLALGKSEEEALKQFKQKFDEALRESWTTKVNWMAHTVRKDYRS
UniProt P29376, sequence (whole entry, looked up): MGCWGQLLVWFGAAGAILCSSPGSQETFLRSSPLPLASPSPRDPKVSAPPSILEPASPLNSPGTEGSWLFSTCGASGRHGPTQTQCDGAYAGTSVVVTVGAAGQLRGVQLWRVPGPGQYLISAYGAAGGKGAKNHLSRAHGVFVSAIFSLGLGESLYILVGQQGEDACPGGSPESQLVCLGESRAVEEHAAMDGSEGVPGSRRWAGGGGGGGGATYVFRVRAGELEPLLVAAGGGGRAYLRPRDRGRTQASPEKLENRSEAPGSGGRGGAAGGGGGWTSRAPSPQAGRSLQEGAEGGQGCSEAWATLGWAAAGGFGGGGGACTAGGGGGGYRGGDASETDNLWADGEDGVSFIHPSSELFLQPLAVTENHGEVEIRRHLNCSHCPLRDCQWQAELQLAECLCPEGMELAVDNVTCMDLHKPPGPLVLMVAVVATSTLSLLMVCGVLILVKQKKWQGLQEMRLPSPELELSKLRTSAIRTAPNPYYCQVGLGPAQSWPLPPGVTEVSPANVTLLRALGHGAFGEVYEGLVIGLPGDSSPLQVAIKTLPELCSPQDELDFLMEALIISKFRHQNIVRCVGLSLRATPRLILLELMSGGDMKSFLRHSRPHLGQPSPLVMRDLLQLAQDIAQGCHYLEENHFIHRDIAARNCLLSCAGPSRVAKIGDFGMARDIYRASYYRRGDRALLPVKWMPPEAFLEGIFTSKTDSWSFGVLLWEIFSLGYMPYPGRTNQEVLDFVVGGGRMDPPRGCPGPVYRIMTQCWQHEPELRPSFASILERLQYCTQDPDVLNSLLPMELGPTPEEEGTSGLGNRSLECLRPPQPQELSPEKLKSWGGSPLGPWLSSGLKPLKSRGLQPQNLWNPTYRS
UniProt P27448, sequence (whole entry, looked up): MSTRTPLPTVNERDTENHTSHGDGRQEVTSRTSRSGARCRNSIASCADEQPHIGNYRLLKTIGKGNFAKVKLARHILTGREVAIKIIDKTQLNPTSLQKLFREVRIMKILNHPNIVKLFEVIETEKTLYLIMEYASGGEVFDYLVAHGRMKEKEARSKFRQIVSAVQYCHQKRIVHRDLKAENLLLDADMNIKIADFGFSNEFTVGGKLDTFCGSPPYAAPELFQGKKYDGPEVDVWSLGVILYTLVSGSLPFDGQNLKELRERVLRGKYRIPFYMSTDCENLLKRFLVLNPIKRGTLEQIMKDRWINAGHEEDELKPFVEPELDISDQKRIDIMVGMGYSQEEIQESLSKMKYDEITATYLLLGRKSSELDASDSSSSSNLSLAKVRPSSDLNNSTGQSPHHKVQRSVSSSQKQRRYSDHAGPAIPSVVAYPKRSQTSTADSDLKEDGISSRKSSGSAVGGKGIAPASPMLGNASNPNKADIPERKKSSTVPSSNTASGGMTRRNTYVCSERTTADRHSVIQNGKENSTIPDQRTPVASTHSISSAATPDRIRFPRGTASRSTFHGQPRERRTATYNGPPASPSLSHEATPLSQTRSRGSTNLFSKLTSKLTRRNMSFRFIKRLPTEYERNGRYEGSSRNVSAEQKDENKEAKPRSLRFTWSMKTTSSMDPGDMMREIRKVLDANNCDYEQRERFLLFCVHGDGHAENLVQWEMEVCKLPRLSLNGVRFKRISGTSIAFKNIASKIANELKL

Block 1
Target: ATP-dependent RNA helicase DDX3X, helicase core (DDX3X, Homo sapiens, UniProt O00571, residues 132-607)
UniProt O00571, sequence (132-607, looked up): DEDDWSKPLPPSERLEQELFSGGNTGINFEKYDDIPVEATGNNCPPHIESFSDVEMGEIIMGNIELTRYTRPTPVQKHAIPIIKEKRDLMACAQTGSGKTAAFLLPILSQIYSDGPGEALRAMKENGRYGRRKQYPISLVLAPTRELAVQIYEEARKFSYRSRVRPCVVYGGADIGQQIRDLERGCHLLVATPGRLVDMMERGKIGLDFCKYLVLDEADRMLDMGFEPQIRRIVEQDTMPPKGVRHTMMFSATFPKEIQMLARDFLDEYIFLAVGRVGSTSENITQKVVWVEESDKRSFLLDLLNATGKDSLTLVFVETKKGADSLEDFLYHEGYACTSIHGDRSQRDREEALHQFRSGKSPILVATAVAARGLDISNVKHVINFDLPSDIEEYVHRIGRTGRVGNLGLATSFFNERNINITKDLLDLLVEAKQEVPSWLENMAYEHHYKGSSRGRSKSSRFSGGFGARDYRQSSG
Method: RNA Bind-n-Seq
Form: RNA
Matrix: in vitro
Concentration: 90 pmol
Setting: 4-mer, random 30-nt RNA, single round
With: 3 µM iPr-DMDA-PatA, 2 mM ADP, 2 mM phosphate
Reference: input library
Reading: higher = stronger binding
With `UUUC` the 4-mer enrichment was 0.943 fold.
For `UUCC`, the 4-mer enrichment was 0.946 fold.
`AGAG` gave a 4-mer enrichment of 1.55 fold.
`AUUU` gave a 4-mer enrichment of 1.19 fold.
`UCGA` gave a 4-mer enrichment of 1.06 fold.
For `GUCC`, the 4-mer enrichment was 0.894 fold.
With `CAGC` the 4-mer enrichment was 0.869 fold.
With `ACCU` the 4-mer enrichment was 1.04 fold.

Block 2
Structure (SMILES): CC(C)n1cnc(-c2ccc(F)cc2)c1-c1ncc(C(=O)Nc2ccc(N3CCN(C)CC3)cc2)[nH]1
Host: idiopathic pulmonary fibrosis patients
It gave 0% for “patients with TEAE” (phase 2a trial; oral, 60 mg once daily, musculoskeletal disorders, grade 5).
The “patients with TEAE” was 1% (phase 2a trial; oral, dose not given, GLDH increased, grade 2, all arms).
The “patients with TEAE” was 0% (item: hypothyroidism grade 5; 30 mg once daily).

Block 3
Target: Max-binding protein MNT, bHLH-zipper, MAX partner unstated (MNT, Homo sapiens, UniProt Q99583, residues 220-300)
Method: protein-binding microarray
Form: double-stranded DNA, one strand shown
Matrix: in vitro
Concentration: not given
Setting: k-mer, scored over probes, only values ≥0.25
Reading: higher = stronger binding
Residues (chain): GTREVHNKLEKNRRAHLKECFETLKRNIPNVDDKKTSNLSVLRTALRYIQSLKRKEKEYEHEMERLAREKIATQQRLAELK
For `AACACGCA`, the E-score was 0.324.
For `CGCATGTC`, the E-score was 0.398.
With `ACGCGCAC` the E-score was 0.354.
With `ACCCATGC` the E-score was 0.383.
`CACCATGC` has an E-score of 0.393.
The E-score of `ATACACGC` is reported as 0.385.
With `GGACGCAC` the E-score was 0.315.
The E-score of `ATGCGCAC` is reported as 0.337.

Block 4
Target: OGT, full length, His-tagged (human)
Method: phage display, sequencing
Matrix: in vitro
Concentration: 1 µg OGT
Setting: single substitutions, 15-mer displayed peptide, unchanged parent 16.7
Reference: input library
Reading: higher = stronger binding
Starting sequence: peptide; NSEYMPQYQIIFAHQ
For `NSEYMPQYQIQFAHQ [I11Q]`, the fold enrichment was 18.6 fold.
`NSEYMPQYQIIFTHQ [A13T]` gave a fold enrichment of 25.6 fold.
For `NSEYMPQYQYIFAHQ [I10Y]`, the fold enrichment was 0.859 fold.
`NSEYMPQIQIIFAHQ [Y8I]` has a fold enrichment of 2.76 fold.
With `NSEYMPQYQIIFAHD [Q15D]` the fold enrichment was 15 fold.
With `NSEPMPQYQIIFAHQ [Y4P]` the fold enrichment was 1.13 fold.
`NSEQMPQYQIIFAHQ [Y4Q]` gave a fold enrichment of 0.991 fold.
With `NSEYMPQYQEIFAHQ [I10E]` the fold enrichment was 0.744 fold.

Block 5
Compound: Cc1c[nH]c2nccc(Oc3c(F)cc(Nc4cc(Cl)nc(N)n4)cc3F)c12
Effect on: cell-free assay
Method: competition with immobilised ligand
Concentration: 0.1 µM
It gave 75% for remaining binding (NEK11 (Homo sapiens, UniProt Q8NG66)).
It gave 90% for remaining binding (IRAK1 (Homo sapiens, UniProt P51617)).
For FGR (Homo sapiens, UniProt P09769): remaining binding read 100%.
PIK3CB (Homo sapiens, UniProt P42338) — remaining binding: 76%.
It gave 86% for remaining binding (PAK3 (Homo sapiens, UniProt O75914)).
ITK (Homo sapiens, UniProt Q08881) — remaining binding: 81%.
The remaining binding was 78% (PIP5K1C (Homo sapiens, UniProt O60331)).
For Tyrosine-protein kinase ABL1, phosphorylated (ABL1, Homo sapiens, UniProt P00519, F317L): remaining binding read 74%.
It gave 74% for remaining binding (MARK3 (Homo sapiens, UniProt P27448)).
The remaining binding was 75% (SRPK2 (Homo sapiens, UniProt P78362)).
The remaining binding was 99% (LTK (Homo sapiens, UniProt P29376)).
For BLK (Homo sapiens, UniProt P51451): remaining binding read 90%.
It gave 100% for remaining binding (TGFBR2 (Homo sapiens, UniProt P37173)).
The remaining binding was 66% (PIK3CA (Homo sapiens, UniProt P42336, M1043I)).
The remaining binding was 95% (KIT (Homo sapiens, UniProt P10721, D816H)).
The remaining binding was 99% (MAP2K4 (Homo sapiens, UniProt P45985)).
For ERBB2 (Homo sapiens, UniProt P04626): remaining binding read 99%.
For Tyrosine-protein kinase JAK1, JH2 (JAK1, Homo sapiens, UniProt P23458): remaining binding read 84%.
The remaining binding was 81% (MAPK4 (Homo sapiens, UniProt P31152)).
MAP2K7 (Homo sapiens, UniProt O14733) — remaining binding: 67%.

Repeated from above (block 5):
It gave 86% for remaining binding (PAK3 (Homo sapiens, UniProt O75914)).
The remaining binding was 66% (PIK3CA (Homo sapiens, UniProt P42336, M1043I)).
It gave 74% for remaining binding (MARK3 (Homo sapiens, UniProt P27448)).
It gave 90% for remaining binding (IRAK1 (Homo sapiens, UniProt P51617)).
